Measurements from different studies.
Parts stem from different laboratories: compare values within a part only. Positions count from the first letter of the parent shown.

Study 1
Target: Fragile X messenger ribonucleoprotein 1, C-terminal low-complexity region (Fmr1, Mus musculus, UniProt P35922)
Method: RNA Bind-n-Seq
Form: RNA
Sample: in vitro
Tested at: 200 nM
Setting: whole 134-nt RNA, ends assumed
Added: 150 mM KCl
Relative to: input library
Direction: higher = stronger binding
Endpoint: log2 enrichment
Shared flanks, not repeated: GGGAGUUCUACAGUCCGACGAUC … UGGAAUUCUCGGGUGUCAAGG
Oligonucleotide = UGUGCUACACAUCGUAUGUACCGAAUCGGGAAAAAAAGGGAAAAAAAGGGGAAAAAAAGGGGAAAGUAUUAUGUUACGCCGUUCGGAUCU; result = -0.205
Oligonucleotide = GCCCUGUAAUCGUGGAGAUCCCGCACUUUGCCUCCCAUGGCCGUGGAGACCGCGAGCUCGUGGUUCUGAGGAGCGAAAACGGCUCCGUGU; result = -1.83
Oligonucleotide = AAACAGCUCUAUAACAAAAUACAAUGCGGGUUCAUGUUAAUGUUUUUAUCUCUAACAGGUUGGUUUCAGUGCUGAUGAAACUUGGGACUC; result = -0.638
Oligonucleotide = AAGUCCUGUGCUACACAUCGUAUGUACCGAAUCAAACCCAAAUUUAAAUUUUUAAAAAAGUAUUAUGUUACGCCGUUCGGAUCUGCACUU; result = 0.237
Oligonucleotide = UGGGAGGUGGAUUUUGUUUAUUUUUUUAGCUCAUUUCCAGGGGUGGGAAUUUUUUUUUAACAUGUGUCAUGAAUAAAGUUGUUUUUGAAA; result = 0.152
Oligonucleotide = UCAAGUCCUGUGCUACACAUCGUAUGUACCGAAUCGGUUUGGUGGAAAAAAAGGAAAGUAUUAUGUUACGCCGUUCGGAUCUGCACUUCC; result = -0.268
Oligonucleotide = AAGUCCUGUGCUACACAUCGUAUGUACCGAAUCAAAUUUUUAAACCCAAACCCAAAAAAGUAUUAUGUUACGCCGUUCGGAUCUGCACUU; result = -0.266
Oligonucleotide = UGGGAGGUGGAUUUUGUUUAUUUUUUUAGCUCAUUUCCAGGGGUGGGAAUUUUUUUUUAAUAUCUGUCAUGAAUAAAGUUGUUUUUGAAA; result = 0.213

Study 2
Target: TAR DNA-binding protein 43, full length, His tag (TARDBP, Homo sapiens, UniProt Q13148, residues 1-414)
Method: RNA Bind-n-Seq
Form: RNA
Sample: in vitro
Tested at: 20 nM
Setting: 6-mer, flanks averaged, single round
Added: 150 mM LiCl
Relative to: input library
Direction: higher = stronger binding
Endpoint: 6-mer enrichment (R)
Oligonucleotide = GUUACG; result = 0.991
Oligonucleotide = UGUUCU; result = 1.05
Oligonucleotide = GAGCAA; result = 0.902
Oligonucleotide = UACGGA; result = 0.911
Oligonucleotide = GUAAUC; result = 0.861
Oligonucleotide = AGUGUU; result = 1.26
Oligonucleotide = UUGUAU; result = 1.25
Oligonucleotide = AAAGCC; result = 0.833

Study 3
Target: Interferon regulatory factor 7, full length, phosphomimetic (IRF7, Homo sapiens, UniProt Q92985, residues 1-503, S101K/S471D/S472D/S475D/S476D/S477D/S483D/S484D/S487D)
Method: protein-binding microarray
Form: double-stranded DNA, one strand shown
Sample: in vitro
Tested at: 250 nM
Setting: 60-bp whole probe
Added: salmon DNA 0.4 mg/ml
Relative to: random background probes
Direction: higher = stronger binding
Endpoint: log fluorescence
Shared flanks, not repeated: GCCTAGCAC … GTCTTGATTCGCTTGACGCTGCTG
Target sequence (chain): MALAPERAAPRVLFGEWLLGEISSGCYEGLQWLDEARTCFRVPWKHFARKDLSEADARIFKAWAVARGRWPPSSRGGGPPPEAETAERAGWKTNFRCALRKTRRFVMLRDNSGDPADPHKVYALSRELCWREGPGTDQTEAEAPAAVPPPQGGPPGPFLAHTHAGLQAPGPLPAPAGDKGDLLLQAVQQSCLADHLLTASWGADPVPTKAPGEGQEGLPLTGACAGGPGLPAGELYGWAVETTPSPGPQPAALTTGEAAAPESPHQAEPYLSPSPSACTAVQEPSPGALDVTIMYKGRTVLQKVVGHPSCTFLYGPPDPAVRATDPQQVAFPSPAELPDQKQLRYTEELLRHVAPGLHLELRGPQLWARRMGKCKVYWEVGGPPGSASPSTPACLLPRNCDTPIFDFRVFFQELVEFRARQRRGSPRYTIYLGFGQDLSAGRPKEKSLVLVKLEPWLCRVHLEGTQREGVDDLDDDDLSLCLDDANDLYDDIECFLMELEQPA
Oligonucleotide = GTTTTTTTCTACTTCTCTTTGTGCTAG; result = 3.1 z-score
Oligonucleotide = GACGCTTTCGACTATCGGGACGTGCTA; result = 0.666 z-score
Oligonucleotide = GATGGTTTCGGTTCCGGGACGTGCTAG; result = 13.8 z-score
Oligonucleotide = TTAGGTCTCCTTTTCTTTTAGTGCTAG; result = 1.68 z-score
Oligonucleotide = TTATGACTGGGTTTCGGTTAGTGCTAG; result = 6.36 z-score
Oligonucleotide = GAGGGACTGGGTCTCGGGACGTGCTAG; result = -0.3 z-score
Oligonucleotide = GACGAAATGGGGTATCGAGACGTGCTA; result = -0.342 z-score
Oligonucleotide = TCAGGCCTCTTCATTCATACTGTGCTA; result = -0.469 z-score

Further values, each from its own experiment
Parent: viral docking peptide; YKVKRRLVFGADD; partner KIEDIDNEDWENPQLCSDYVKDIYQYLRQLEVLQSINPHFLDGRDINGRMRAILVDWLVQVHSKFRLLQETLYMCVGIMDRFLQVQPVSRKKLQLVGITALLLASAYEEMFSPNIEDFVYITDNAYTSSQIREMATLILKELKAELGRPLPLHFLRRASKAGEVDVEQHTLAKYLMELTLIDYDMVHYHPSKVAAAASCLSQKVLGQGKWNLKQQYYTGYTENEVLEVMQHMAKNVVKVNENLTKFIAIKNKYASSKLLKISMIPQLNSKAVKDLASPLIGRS
Variant = YKVKRRLVRGADD [F9R]; target = CCNB2, cyclin fold, Cln2 fusion (human); test = yeast growth competition, sequencing; test system = yeast; conditions = strong parent motif; how to read = relative to: not given, higher = stronger binding; endpoint = normalised enrichment score; result = 0.379

Some of these lines once more (study 1):
Oligonucleotide = AAACAGCUCUAUAACAAAAUACAAUGCGGGUUCAUGUUAAUGUUUUUAUCUCUAACAGGUUGGUUUCAGUGCUGAUGAAACUUGGGACUC; result = -0.638
Oligonucleotide = UGGGAGGUGGAUUUUGUUUAUUUUUUUAGCUCAUUUCCAGGGGUGGGAAUUUUUUUUUAAUAUCUGUCAUGAAUAAAGUUGUUUUUGAAA; result = 0.213
